Literature values, collected from citations in different studies.
Numbered parts are unrelated; values within a part may stem from several laboratories. Values after ≈ are worked out from the molar mass of the structure shown.

Series 1 — organism: Cryptosporidium parvum; method: high-throughput screen; concentration: concentration not given
Structure (SMILES)	activity
COc1ccc(CC(C)NCC(O)c2ccc(O)c(NC=O)c2)cc1.COc1ccc(CC(C)NCC(O)c2ccc(O)c(NC=O)c2)cc1.O.O.O=C(O)/C=C/C(=O)O (centres unmarked)	inactive
CC12CC3CC(C)(C1)CC(N)(C3)C2	inactive
COC(=O)CCc1ccc(OCC(O)CNC(C)C)cc1 (centres unmarked)	inactive
CN(C)CCCN1c2ccccc2CCc2ccccc21	inactive
CO/N=C(\C(=O)N[C@@H]1C(=O)N2C(C(=O)O)=C(COC(C)=O)CS[C@H]12)c1csc(N)n1	inactive
CC(C)(C)NCC(O)c1ccc(O)c(CO)c1.CC(C)(C)NCC(O)c1ccc(O)c(CO)c1.O=S(=O)(O)O (centres unmarked)	inactive
CC(CCCCC(=O)Nc1ccc(C(F)(F)F)cc1)NCCc1cnc[nH]1 (centres unmarked)	inactive
C[C@@H](O)[C@H]1C(=O)N2C(C(=O)O)=C(S[C@@H]3CN[C@H](C(=O)N(C)C)C3)[C@H](C)[C@H]12	inactive
O=C(NCCO[N+](=O)[O-])c1cccnc1	inactive
CS(=O)(=O)O.O=C(O[C@H]1C[C@H]2CC3C[C@@H](C1)N2CC3=O)c1c[nH]c2ccccc12	inactive
CC(=O)OCC(=O)[C@@]1(O)CC[C@H]2[C@@H]3CCC4=CC(=O)CC[C@]4(C)[C@H]3[C@@H](O)C[C@@]21C	inactive
CC(C)n1c(/C=C/C(O)CC(O)CC(=O)O)c(-c2ccc(F)cc2)c2ccccc21 (centres unmarked)	inactive
CCCNC(C)C(=O)Nc1ccccc1C (centres unmarked)	inactive
Cn1c(=O)c2[nH]cnc2n(C)c1=O	inactive
COC(=O)Nc1nc2cc(C(=O)c3ccc(F)cc3)ccc2[nH]1	inactive
CN(C)c1nc(N(C)C)nc(N(C)C)n1	inactive
COc1cc(C)c(Cc2cnc(N)nc2N)cc1OC	inactive
CC(C)c1ccc2oc3nc(N)c(C(=O)O)cc3c(=O)c2c1	inactive
Clc1ccc(COC(Cn2ccnc2)c2ccc(Cl)cc2Cl)c(Cl)c1 (centres unmarked)	inactive
CN1CCN(CCCN2c3ccccc3Sc3ccc(Cl)cc32)CC1	inactive
CC(=O)CCCCn1cnc2c1c(=O)n(C)c(=O)n2C	inactive
CCC1=C(C)CN(C(=O)NCCc2ccc(S(=O)(=O)NC(=O)N[C@H]3CC[C@H](C)CC3)cc2)C1=O	inactive
CCC(C)(C)C(=O)O[C@H]1C[C@@H](C)C=C2C=C[C@H](C)[C@H](CC[C@@H]3C[C@@H](O)CC(=O)O3)[C@H]21	inactive
CC(=O)OCC(=O)NCCCOc1cccc(CN2CCCCC2)c1	inactive
C[C@]12C=CC(=O)C=C1CC[C@@H]1[C@@H]2[C@@H](O)C[C@@]2(C)[C@H]1CC[C@]2(O)C(=O)CO	inactive

Mixed results
Compound	target or system	assay	system	conditions	scale	measurement	result
O=C(O)[C@H]1/C(=C/CO)O[C@@H]2CC(=O)N21				acidic conditions		aqueous stability	unstable
Cc1occc1C(=O)Nc1ccc(C(=O)N2CCC(F)(F)/C(=C\C(=O)N3CCC(N4CCCCC4)CC3)c3ccccc32)cc1	vasopressin V1a receptor	antagonist				Ki	0.18 nM
O=C1CSC(=S)N1	AANAT	enzyme activity				IC50	27000 nM
CC[C@@H](CC[C@@H](C)[C@H]1CC[C@H]2[C@@H]3CC=C4C[C@@H](O)CC[C@]4(C)[C@H]3CC[C@]12C)C(C)C	HeLa	cell growth				IC50	15.9 µg/mL
COc1cccc(NC(=O)c2nc3scc(CN(C)Cc4ccccc4)c3c(=O)[nH]2)c1	MMP13 (human)	enzyme activity				IC50	39 nM
CN(C)C/C=C/C(=O)Nc1cc2c(Nc3ccc(F)c(Cl)c3)ncnc2cc1O[C@H]1CCOC1				in vitro, added: glutathione		half-life	~30 min
C[C@H]1c2cccc(O)c2C(=O)C2=C(O)[C@]3(O)C(=O)C(C(N)=O)=C(O)[C@@H](N(C)C)[C@@H]3[C@@H](O)[C@@H]21	Staphylococcus aureus					MIC	32 µg/mL (≈ 72 µM)
CC1=NN(c2ccc(C)c(C)c2)C(=O)/C1=N\Nc1cccc(-c2cccc(C(=O)O)c2)c1O			human	dose not given	baseline: oral dose	unchanged drug in feces	20%
Cn1cncc1[C@@](N)(c1ccc(Cl)cc1)c1ccc2c(c1)c(-c1cccc(Cl)c1)cc(=O)n2C			human	concentration not given, added: high-fat meal	baseline: fasted	exposure increase	~30%
CC(=O)O[C@H]1CC[C@]2(C)[C@H]3CC[C@]4(C)C(=CC[C@@]5(C(=O)O)CCC(C)(C)C[C@H]54)[C@]3(C)CC[C@H]2C1(C)C	HeLa	cell growth				IC50	35.7 µg/mL
Cc1cc(C)c(CNC(=O)c2cc(Cl)c3c(c2C)O[C@@](C)([C@H]2CC[C@H](N(C)C)CC2)O3)c(=O)[nH]1			human, plasma	oral, 100 mg single dose, study, geometric mean		Cmax	570 ng/mL
CO[C@H]1/C=C/O[C@@]2(C)Oc3c(C)c(O)c4c(O)c(c(/C=N/N5CCN(C)CC5)c(O)c4c3C2=O)NC(=O)/C(C)=C\C=C\[C@H](C)[C@H](O)[C@@H](C)[C@@H](O)[C@@H](C)[C@H](OC(C)=O)[C@@H]1C	Staphylococcus aureus					MIC	8 µg/mL (≈ 9.72 µM)
CN(C)CC#Cc1ccc(OCCCc2sc(N3CCc4cccc(C(=O)Nc5nc6ccccc6s5)c4C3)nc2C(=O)O)c(F)c1	primary colorectal cancer spheroids	cell growth				effective concentration	~100 nM
CCCCCCc1ccc(Oc2ccccc2C)c(O)c1	Mycobacterium tuberculosis		H37Rv			MIC	3.13 µg/mL (≈ 11 µM)
O=C(NCc1ncc(C(F)(F)F)cc1Cl)c1ccc2c(c1)C1(CCS(=O)(=O)CC1)[C@H](C1CC1)N2S(=O)(=O)c1ccc(F)cc1	GNRHR	biochemical activity				IC50	21 nM
C=C[C@]1(C)C[C@@H](OC(=O)CSC(C)(C)CNC(=O)[C@H](N)C(C)C)[C@]2(C)[C@H](C)CC[C@]3(CCC(=O)[C@H]32)[C@@H](C)[C@@H]1O	Mycoplasma gallisepticum		chickens	dose not given		target AUC24h/MIC	56300 h
C[C@H](c1cccc(C#N)c1)n1cc(Cl)cc(C(N)=O)c1=N	ADRA1D					Ki	1.6 nM
F[C@@H]1CCN(c2ccc(-c3ccc4sc(-c5cccnc5)cc4n3)cn2)C1	alpha-synuclein	binding				Kd	9 nM
Cc1cc2c(s1)Nc1ccccc1N=C2N1CCN(C)CC1			human	oral, 10 mg, day 1		Cmax	15.2 ng/mL
O=C(O)[C@H]1O[C@@H](Oc2cc3oc(-c4ccccc4)cc(=O)c3c(O)c2O)[C@H](O)[C@@H](O)[C@@H]1O	Mycoplasma gallisepticum					MIC	31.2 µg/mL (≈ 70 µM)
COCCNc1nc2ccc(C#CC3(O)CCCCC3)cc2n1-c1ccnc(N)n1	PAK6	inhibitor				IC50	36 nM
CC(=O)N[C@@H](CS)C(=O)O			human			intestinal first-pass extraction	68%
O=C1Nc2ccc(Cl)cc2[C@@](C#CC2CC2)(C(F)(F)F)O1	CYP1A2					CLint	0.03 µL/min/mg protein
Cc1nsc(-c2nnc3n2CCN(C(=O)c2ccc(F)cc2)[C@@H]3C)n1			human	oral, 45 mg, single dose, market formulation		Cmax	506 ng/mL
N=C(N)NCCC[C@H](NC(=O)[C@H](CCCNC(=N)N)NC(=O)[C@H](CCCCN)NC(=O)[C@H](CCC(N)=O)NC(=O)[C@H](CCCCN)NC(=O)[C@H](Cc1ccc(O)cc1)NC(=O)[C@@H](N)CCCCN)C(=O)N[C@@H](CO)C(=O)N[C@@H](Cc1ccc(O)cc1)C(=O)N[C@@H](CCCCN)C(=O)O			beagle dog IPC model			local NOAEL	0.08 mg/kg
